Results collected from several papers.
Parts stem from different laboratories: compare values within a part only.

Set 1 — technique: protein binding microarray; form: double-stranded DNA, one strand shown; matrix: in vitro; concentration: not given; baseline: not given; reading: higher = stronger binding
Target: Histone acetyltransferase KAT6A, winged helix 2, GST fusion (KAT6A, Homo sapiens, UniProt Q92794, residues 85-181)
Notes: 8-mer, flanks averaged, mean of 2 arrays, mostly near background
Target sequence (chain): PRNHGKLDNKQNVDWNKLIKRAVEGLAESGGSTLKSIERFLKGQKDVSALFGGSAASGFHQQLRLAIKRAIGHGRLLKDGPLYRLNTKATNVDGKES
| Oligonucleotide | E-score |
| --- | --- |
| TGCCACCA | -0.0601 |
| AATGGGTC | -0.0642 |
| GTCCGGCA | 0.069 |
| CCAAATGG | 0.139 |
| CTCATAAC | -0.0377 |
| CAAGGAAA | -0.0652 |

Set 2 — technique: universal PBM; form: double-stranded DNA, one strand shown; matrix: in vitro; concentration: not given; reading: higher = stronger binding
Target: Sal-like protein 4, full length isoform B (SALL4, Homo sapiens, UniProt Q9UJQ4-2, residues 1-616)
Notes: 8-mer, flanks averaged, mean of replicates
Construct (chain): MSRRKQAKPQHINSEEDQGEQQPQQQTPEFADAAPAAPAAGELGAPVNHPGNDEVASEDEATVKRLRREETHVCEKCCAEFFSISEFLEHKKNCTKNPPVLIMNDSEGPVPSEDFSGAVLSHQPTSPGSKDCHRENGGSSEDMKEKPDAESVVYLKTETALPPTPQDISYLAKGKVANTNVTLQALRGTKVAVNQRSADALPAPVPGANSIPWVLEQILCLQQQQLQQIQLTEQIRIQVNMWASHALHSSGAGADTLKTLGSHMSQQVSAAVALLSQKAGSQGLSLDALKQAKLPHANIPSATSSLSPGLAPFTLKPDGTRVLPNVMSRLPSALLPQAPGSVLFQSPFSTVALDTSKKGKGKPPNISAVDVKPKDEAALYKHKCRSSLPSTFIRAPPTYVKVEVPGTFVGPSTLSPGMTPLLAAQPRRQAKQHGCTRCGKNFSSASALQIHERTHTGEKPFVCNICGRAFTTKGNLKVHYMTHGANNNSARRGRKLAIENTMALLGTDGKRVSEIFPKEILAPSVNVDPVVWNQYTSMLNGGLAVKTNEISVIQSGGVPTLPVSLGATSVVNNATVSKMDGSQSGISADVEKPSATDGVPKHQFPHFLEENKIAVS
| Oligonucleotide | E-score |
| --- | --- |
| GAGAGCGA | -0.104 |
| AGCAAAGA | 0.0568 |
| ACAACACC | 0.135 |
| ACTGTAGC | 0.0232 |
| CGAAGCCC | -0.26 |

Set 3 — technique: protein-binding microarray; form: double-stranded DNA, one strand shown; matrix: in vitro; concentration: 940 nM top; notes: 60-bp whole probe; added: salmon DNA 0.4 mg/ml; baseline: random background probes; reading: higher = stronger binding; all sequences stand within: GCCTAGCAC … GTCTTGATTCGCTTGACGCTGCTG
Target: Interferon regulatory factor 5, full length, phosphomimetic (IRF5, Homo sapiens, UniProt Q13568-2, residues 1-514, S451D/S453D/S456D/S462D)
| Oligonucleotide | fitted relative affinity [z-score] |
| --- | --- |
| TAAGGTATCGACACTGGGTTAGTGCTA | 2.8 |
| GACGATTTCGGCTTTCGAGACGTGCTA | 0.908 |
| GACGGACTGGACTAACGGGACGTGCTA | -0.999 |
| TCACCTTTTCACTTTACACTGTGCTAG | 1.86 |
| GACGATCTCAGTATCGACACGTGCTAG | 2.02 |

Other studies, line by line
| Substance | target | assay | test system | setting | how to read | measurement | value |
| --- | --- | --- | --- | --- | --- | --- | --- |
| PhoQ, residues 284 288 289 292 302 303 NSMLDC | PhoP, residues 12 14 15 18 19 YHFSH (Escherichia coli, UniProt P23836) | Sort-seq, refers to: YFP reporter | E. coli | PhoQ-PhoP variant library, added: 10 µM Mg2+ | baseline: high Mg2+ state, higher = stronger signaling | fold induction | 2 |

A few entries again (set 3):
| Oligonucleotide | fitted relative affinity [z-score] |
| --- | --- |
| TAAGGTATCGACACTGGGTTAGTGCTA | 2.8 |
